# Assay results pooled from the literature.
# Every numbered part comes from another study and shows a few of its results, in no order. “And” joins repeats or separate records; there may be more than shown.
# UniProt P42336, sequence (whole entry, unmodified, looked up): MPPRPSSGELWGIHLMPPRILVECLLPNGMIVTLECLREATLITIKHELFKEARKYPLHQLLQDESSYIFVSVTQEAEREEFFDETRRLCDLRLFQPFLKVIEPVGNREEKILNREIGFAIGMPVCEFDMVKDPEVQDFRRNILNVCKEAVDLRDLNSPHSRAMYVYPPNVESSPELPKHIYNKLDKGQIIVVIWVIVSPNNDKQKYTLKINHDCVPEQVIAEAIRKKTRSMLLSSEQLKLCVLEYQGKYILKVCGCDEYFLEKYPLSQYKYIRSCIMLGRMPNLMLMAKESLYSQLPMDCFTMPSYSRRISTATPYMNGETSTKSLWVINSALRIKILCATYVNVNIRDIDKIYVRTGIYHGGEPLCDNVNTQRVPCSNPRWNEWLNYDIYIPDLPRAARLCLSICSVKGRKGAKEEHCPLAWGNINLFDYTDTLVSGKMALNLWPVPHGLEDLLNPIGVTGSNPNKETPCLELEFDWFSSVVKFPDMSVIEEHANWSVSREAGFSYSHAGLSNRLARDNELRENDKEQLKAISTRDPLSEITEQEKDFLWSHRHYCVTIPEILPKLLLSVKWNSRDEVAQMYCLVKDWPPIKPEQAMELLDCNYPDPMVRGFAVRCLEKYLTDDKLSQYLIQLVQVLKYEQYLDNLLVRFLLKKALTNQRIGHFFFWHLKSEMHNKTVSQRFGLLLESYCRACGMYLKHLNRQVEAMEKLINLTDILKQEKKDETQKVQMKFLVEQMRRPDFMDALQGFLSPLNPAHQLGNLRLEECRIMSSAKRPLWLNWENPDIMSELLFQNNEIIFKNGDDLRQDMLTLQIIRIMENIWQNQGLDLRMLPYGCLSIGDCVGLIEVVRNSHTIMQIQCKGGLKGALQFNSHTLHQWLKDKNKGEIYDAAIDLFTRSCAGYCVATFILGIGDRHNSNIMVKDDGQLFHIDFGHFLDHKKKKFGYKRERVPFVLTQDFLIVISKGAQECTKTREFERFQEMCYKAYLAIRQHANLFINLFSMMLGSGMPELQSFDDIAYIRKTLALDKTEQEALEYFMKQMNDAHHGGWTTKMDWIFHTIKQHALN
# UniProt Q9NYL2, sequence (whole entry, looked up): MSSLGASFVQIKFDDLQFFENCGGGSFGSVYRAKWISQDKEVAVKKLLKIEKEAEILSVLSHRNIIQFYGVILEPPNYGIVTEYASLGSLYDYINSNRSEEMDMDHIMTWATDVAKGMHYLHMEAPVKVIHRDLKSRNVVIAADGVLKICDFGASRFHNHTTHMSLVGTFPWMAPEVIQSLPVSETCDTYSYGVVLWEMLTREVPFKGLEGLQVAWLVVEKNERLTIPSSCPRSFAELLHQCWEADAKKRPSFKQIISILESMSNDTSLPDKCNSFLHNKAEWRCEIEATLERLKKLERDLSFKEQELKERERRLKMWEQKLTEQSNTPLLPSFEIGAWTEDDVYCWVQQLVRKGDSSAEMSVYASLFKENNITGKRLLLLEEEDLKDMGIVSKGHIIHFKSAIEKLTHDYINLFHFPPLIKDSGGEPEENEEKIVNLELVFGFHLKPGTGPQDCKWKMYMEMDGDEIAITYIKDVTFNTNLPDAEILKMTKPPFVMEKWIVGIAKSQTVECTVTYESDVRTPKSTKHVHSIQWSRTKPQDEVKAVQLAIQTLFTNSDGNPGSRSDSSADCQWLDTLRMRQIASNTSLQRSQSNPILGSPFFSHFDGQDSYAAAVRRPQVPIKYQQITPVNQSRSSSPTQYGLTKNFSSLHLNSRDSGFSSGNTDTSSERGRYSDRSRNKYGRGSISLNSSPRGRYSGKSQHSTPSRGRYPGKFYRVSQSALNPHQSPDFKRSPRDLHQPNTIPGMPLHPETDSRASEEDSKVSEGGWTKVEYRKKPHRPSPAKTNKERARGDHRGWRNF
# UniProt Q8N5S9, sequence (whole entry, looked up): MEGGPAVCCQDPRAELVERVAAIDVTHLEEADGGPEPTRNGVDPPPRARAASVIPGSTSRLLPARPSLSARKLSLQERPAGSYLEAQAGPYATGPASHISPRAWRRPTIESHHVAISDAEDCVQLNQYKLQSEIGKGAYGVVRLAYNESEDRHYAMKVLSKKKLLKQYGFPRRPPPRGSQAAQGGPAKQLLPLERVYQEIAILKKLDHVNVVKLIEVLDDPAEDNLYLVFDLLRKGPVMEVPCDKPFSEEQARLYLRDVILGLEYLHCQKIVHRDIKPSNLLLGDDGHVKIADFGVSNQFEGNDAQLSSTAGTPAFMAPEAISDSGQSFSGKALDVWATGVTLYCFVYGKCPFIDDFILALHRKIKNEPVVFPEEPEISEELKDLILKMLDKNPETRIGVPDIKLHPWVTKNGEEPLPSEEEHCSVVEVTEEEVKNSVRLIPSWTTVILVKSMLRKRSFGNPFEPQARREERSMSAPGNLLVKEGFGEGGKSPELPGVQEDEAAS

# Block 1
# Compound: O=S(=O)(NCCNC/C=C/c1ccc(Br)cc1)c1cccc2cnccc12
# Effect on: enzyme activity
# Action: inhibitor
# Concentration: 0.5 µM
# Baseline: control
target,remaining activity
"SGK2 (Homo sapiens, UniProt Q9HBY8)",84.2%
"PAK6 (Homo sapiens, UniProt Q9NQU5)",85.5%
"CLK1 (Homo sapiens, UniProt P49759)",103%
"SIK2 (Homo sapiens, UniProt Q9H0K1)",95%
"RPS6KA3 (Homo sapiens, UniProt P51812)",70.9%
"CLK2 (Homo sapiens, UniProt P49760)",106%
"Cyclin-dependent kinase 2, with cyclin E (CDK2, Homo sapiens, UniProt P24941)",99.3%
"EPHA2 (Homo sapiens, UniProt P29317)",101%
"PAK1 (Homo sapiens, UniProt Q13153)",90.2%
"PRKCQ (Homo sapiens, UniProt Q04759)",104%
"JAK1 (Homo sapiens, UniProt P23458)",87.3%
"PRKCZ (Homo sapiens, UniProt Q05513)",79.8%
"IGF1R (Homo sapiens, UniProt P08069)",104%
"TEC (Homo sapiens, UniProt P42680)",102%
"CAMKK1 (Homo sapiens, UniProt Q8N5S9)",99.1%
"MAP3K20 (Homo sapiens, UniProt Q9NYL2)",105%
"CSNK1E (Homo sapiens, UniProt P49674)",107%
"TYRO3 (Homo sapiens, UniProt Q06418)",93.9%
"FLT1 (Homo sapiens, UniProt P17948)",90.8%
"CAMK1 (Homo sapiens, UniProt Q14012)",107%

# Block 2
# Host: human
# Medium: microsomes or S9
# Concentration: 2 µM
# Time: 0.5 h
Compound,remaining compound [%]
COC(=O)c1ccc(C(=O)Nc2cc(F)ccc2NC(C)C)[nH]1,38.6
COc1cc(OC)c(CC2C(=O)N(c3ccccc3)c3ccccc32)c(OC)c1 (centres unmarked),< 1
Cc1cc2n(CCNC(=O)COc3ccc(F)cc3)ccn2n1,57.7
CN(C)CCCNC(=O)c1cc(S(=O)(=O)N(C)C)c(Cl)cc1Cl,> 99
Cc1cc2cc[nH]c2cc1NC(=O)Cc1ccc(F)cc1F,89.4
COCCN(Cc1ccc(C)c(Br)c1)C(=O)Cn1cnc(S(=O)(=O)N2CCCC2)c1,68.1
CON(C)c1nc(OCCNC(=O)OCc2ccc(Cl)cc2C)nc(N(C)C)n1,0.504
O=S(=O)(/C(=C(\F)Oc1ccccc1)c1ccccc1)c1ccccc1,12.4
c1ccc(C(c2ccccc2)([C@H]2CCCN2)n2cc(-c3ccccn3)nn2)cc1,18.9

# Block 3
# SMILES: Cn1cc(Cl)c2c(Oc3c(F)cc(Nc4cc(Cl)nc(N)n4)cc3F)ccnc21
# Technique: competition with immobilised ligand
# Concentration: 0.1 µM
target,assay,remaining binding
"MAP3K20 (Homo sapiens, UniProt Q9NYL2)",cell-free assay,97%
"PHKG1 (Homo sapiens, UniProt Q16816)",cell-free assay,100%
"PIK3CA (Homo sapiens, UniProt P42336)",cell-free assay,79%
"BMPR1A (Homo sapiens, UniProt P36894)",binding,95%
"ERBB4 (Homo sapiens, UniProt Q15303)",cell-free assay,97%
"MARK3 (Homo sapiens, UniProt P27448)",cell-free assay,83%
"Ribosomal protein S6 kinase alpha-5, N-terminal kinase domain (RPS6KA5, Homo sapiens, UniProt O75582)",cell-free assay,100%
"PIK3CA (Homo sapiens, UniProt P42336, Q546K)",cell-free assay,76%
"PAK5 (Homo sapiens, UniProt Q9P286)",cell-free assay,90%
"COQ8B (Homo sapiens, UniProt Q96D53)",cell-free assay,89%
"PRKCE (Homo sapiens, UniProt Q02156)",cell-free assay,91%

# Block 4
# Target: DNA polymerase theta, ATPase domain (POLQ, Homo sapiens, UniProt O75417)
# UniProt O75417, sequence (whole entry, unmodified, looked up): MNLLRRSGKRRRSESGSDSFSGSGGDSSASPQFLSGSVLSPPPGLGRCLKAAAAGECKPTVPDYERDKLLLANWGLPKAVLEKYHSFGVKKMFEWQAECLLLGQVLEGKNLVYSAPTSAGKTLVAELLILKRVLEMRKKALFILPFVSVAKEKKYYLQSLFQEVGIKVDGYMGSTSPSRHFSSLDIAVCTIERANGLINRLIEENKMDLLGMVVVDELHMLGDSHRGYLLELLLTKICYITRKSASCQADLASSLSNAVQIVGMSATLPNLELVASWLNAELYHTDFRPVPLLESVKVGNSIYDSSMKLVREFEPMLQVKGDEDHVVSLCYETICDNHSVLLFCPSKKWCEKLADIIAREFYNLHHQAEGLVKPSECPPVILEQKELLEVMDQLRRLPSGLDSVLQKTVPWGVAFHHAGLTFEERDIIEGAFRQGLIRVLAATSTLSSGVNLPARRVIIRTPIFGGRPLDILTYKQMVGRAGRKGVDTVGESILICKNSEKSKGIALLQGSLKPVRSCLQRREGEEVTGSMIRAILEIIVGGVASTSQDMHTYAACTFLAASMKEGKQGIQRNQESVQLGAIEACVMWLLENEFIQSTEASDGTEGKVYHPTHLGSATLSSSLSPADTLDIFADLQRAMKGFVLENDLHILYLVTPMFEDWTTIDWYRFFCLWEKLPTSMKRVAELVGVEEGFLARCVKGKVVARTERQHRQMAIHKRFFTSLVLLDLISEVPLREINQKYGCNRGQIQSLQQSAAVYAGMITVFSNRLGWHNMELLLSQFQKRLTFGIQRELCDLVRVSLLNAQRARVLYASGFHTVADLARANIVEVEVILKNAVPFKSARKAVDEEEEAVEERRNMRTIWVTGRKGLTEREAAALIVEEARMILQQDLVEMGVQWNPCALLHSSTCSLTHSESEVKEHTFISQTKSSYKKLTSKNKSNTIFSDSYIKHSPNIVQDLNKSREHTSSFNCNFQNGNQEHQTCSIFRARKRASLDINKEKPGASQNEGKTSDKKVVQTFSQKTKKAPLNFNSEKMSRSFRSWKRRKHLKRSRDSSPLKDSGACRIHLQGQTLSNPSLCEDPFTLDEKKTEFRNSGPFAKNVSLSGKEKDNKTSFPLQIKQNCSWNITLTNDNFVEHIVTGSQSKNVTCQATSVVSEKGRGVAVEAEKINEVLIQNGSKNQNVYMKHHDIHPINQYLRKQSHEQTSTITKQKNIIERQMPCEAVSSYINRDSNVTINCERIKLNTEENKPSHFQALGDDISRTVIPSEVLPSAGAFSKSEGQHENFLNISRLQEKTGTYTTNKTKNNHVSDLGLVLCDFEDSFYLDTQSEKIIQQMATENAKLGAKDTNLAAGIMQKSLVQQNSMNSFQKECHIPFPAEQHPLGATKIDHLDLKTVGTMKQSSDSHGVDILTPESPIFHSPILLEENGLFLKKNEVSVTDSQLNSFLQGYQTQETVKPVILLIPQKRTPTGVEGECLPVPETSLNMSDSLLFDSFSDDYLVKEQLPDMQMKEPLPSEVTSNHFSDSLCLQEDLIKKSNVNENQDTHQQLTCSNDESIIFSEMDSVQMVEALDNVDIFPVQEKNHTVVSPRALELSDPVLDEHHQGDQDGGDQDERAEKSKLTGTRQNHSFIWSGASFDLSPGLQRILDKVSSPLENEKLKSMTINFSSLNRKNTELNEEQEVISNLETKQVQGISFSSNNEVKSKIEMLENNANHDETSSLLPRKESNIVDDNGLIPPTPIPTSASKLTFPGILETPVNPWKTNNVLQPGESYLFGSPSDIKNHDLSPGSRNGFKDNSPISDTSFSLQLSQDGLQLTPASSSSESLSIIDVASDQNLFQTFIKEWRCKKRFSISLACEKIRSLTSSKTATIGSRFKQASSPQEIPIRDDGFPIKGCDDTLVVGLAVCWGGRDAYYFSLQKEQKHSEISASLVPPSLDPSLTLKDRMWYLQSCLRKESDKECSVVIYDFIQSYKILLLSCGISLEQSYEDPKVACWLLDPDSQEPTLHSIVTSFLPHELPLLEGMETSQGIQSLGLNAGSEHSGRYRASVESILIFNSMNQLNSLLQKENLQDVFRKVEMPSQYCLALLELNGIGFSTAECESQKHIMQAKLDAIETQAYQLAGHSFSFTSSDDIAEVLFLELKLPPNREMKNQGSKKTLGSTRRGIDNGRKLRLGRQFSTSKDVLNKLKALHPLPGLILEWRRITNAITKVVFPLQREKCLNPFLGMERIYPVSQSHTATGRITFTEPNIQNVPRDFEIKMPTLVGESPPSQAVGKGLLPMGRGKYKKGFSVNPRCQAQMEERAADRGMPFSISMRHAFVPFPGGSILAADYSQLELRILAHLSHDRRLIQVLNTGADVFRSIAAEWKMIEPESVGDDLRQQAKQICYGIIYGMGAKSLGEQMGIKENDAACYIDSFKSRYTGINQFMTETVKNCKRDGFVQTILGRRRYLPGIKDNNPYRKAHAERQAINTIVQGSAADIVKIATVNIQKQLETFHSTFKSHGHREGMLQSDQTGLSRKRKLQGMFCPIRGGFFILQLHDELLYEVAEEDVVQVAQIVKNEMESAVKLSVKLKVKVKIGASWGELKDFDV
# Effect on: enzyme activity
# Action: inhibitor
# Concentration: 77 µM
# Baseline: untreated
SMILES,remaining activity
O=c1c(O)c(-c2cc(O)c(O)c(O)c2)oc2cc(O)cc(O)c12,97.5% and 106%
O=C1NCCN1c1ncc([N+](=O)[O-])s1,100%
CC(=O)Oc1cc2c(s1)CCN(C(C(=O)C1CC1)c1ccccc1F)C2 (centres unmarked),96.9%
CCNC(=O)CCC/C=C\C[C@@H]1[C@@H](/C=C/[C@@H](O)CCc2ccccc2)[C@H](O)C[C@@H]1O,95.5%
CNC(=O)c1cc(Oc2ccc(NC(=O)Nc3cc(C(C)(C)C)nn3-c3ccc4ncccc4c3)c(F)c2)ccn1,98.2%
O=C(O)C(O)Cc1ccc(O)c(O)c1 (centres unmarked),73.8%
NS(=O)(=O)c1cc2c(cc1Cl)N=C(CSCc1ccccc1)NS2(=O)=O,99%

# Some of these lines once more (block 1):
target,remaining activity
"CLK2 (Homo sapiens, UniProt P49760)",106%
"PAK1 (Homo sapiens, UniProt Q13153)",90.2%
